# Experimental data gathered from unrelated publications.
# Each line is one published result; not all experiments were run side by side. ± marks the error that the study gave.
# Complement C3 C3b fragment: Complement C3, C3b fragment (Homo sapiens, UniProt P01024)
SMILES,target,test,system,conditions,quantity,value
NC(=O)C[C@@H]1NC(=O)[C@H](Cc2ccc(O)cc2)NC(=O)CNC(=O)CNC(=O)[C@H](CCC(=O)O)NC(=O)[C@H](CCC(=O)O)NC(=O)[C@H](Cc2ccccc2)NC(=O)[C@@H]2CCCN2C1=O,"EH domain-containing protein 1, EH domain (Homo sapiens, UniProt Q9H4M9)","binding, isothermal titration calorimetry",,all salt conditions,affinity improvement over linear peptide,4 fold
NC[C@@H]1O[C@H](O[C@H]2[C@@H](O)[C@H](O[C@@H]3[C@@H](O)[C@H](N)C[C@H](N)[C@H]3O[C@H]3O[C@H](CN)[C@@H](O)[C@H](O)[C@H]3N)O[C@@H]2CO)[C@H](N)[C@@H](O)[C@@H]1O,poly(dA)·2poly(dT) triplex,ITC,,"concentration not given, pH 5.5, 20 °C, KCl 140 mM",binding enthalpy,-1.31 ± 0.02 kcal/mol
C#Cc1ccc(O[C@@H]2O[C@H](CO)[C@H](O)[C@H](O)[C@H]2O)cc1,"lecA (Pseudomonas aeruginosa, UniProt Q05097)",ITC,,5% DMSO,–TΔS,2.5 ± 0.6 kcal/mol
CC[C@H](C)[C@H](NC(=O)[C@@H]1CSSC[C@H](NC(=O)[C@@H](NC(C)=O)[C@@H](C)CC)C(=O)N[C@@H](C(C)C)C(=O)N[C@@H](Cc2cn(C)c3ccccc23)C(=O)N[C@@H](CCC(N)=O)C(=O)N[C@@H](CC(=O)O)C(=O)N[C@@H](Cc2c[nH]c3ccccc23)C(=O)N(C)CC(=O)N[C@@H](C)C(=O)N[C@@H](Cc2c[nH]cn2)C(=O)N[C@@H](CCCNC(=N)N)C(=O)N1)C(N)=O,"Complement C3 (Homo sapiens, UniProt P01024)",ITC,PBS,"concentration not given, pH 7.4, 25 °C",−TΔS of binding,2.9 kcal/mol
Cc1ccc(C(=O)Nc2ccc(CP(=O)(O)O)cc2CP(=O)(O)O)cc1NC(=O)c1cccc(NC(=O)Nc2cccc(C(=O)Nc3cc(C(=O)Nc4ccc(CP(=O)(O)O)cc4CP(=O)(O)O)ccc3C)c2)c1,"F11 (Homo sapiens, UniProt P03951)","enzyme activity, inhibitor",,"25 µM, added: S-2366 substrate",Km,410 ± 40 µM
COC(=O)C1=Cc2ccccc2S1(=O)=O,"E3 ubiquitin-protein ligase RNF5 (Homo sapiens, UniProt Q99942)",immunoblotting,HeLa,"10 µM, 9 h",protein level,decreased
O=C(N[C@@H](Cc1coc2ccccc12)B(O)O)[C@@H]1C[C@H]2CC[C@@H]1O2,"Proteasome component C5/PSMB8 (Homo sapiens, UniProt P20618+P28062)",,"mouse, U266B1 xenograft, tumour","oral, 10 and 30 mg/kg single",duration of maximal inhibition,≥ 24 h
O=C(NCC1CO1)Oc1ccc([N+](=O)[O-])cc1 (racemic),"Epoxide hydrolase 1 (Ephx1, Rattus norvegicus, UniProt P07687)","enzyme activity, substrate",,"50 µM, pH 9.0, 37 °C, rat enzyme",specific activity,< 5 nmol/min/mg
Clc1ccc2ccc3[n+](c2c1)[Ir-3]12([c]4ccccc4-3)([c]3ccccc3-c3ccc4ccc(Cl)cc4[n+]31)[n+]1ccccc1-c1cccc[n+]12.F[P-](F)(F)(F)(F)F,"Cyclin-dependent kinase 9, with cyclin T2 (CDK9, Homo sapiens, UniProt P50750)",,MDA-MB-231,"3 µM, 4 h",co-immunoprecipitation,no effect
CC[C@H](C)[C@H](NC(=O)[C@H](CCCNC(=N)N)NC(=O)[C@H](CCCCN)NC(=O)[C@@H](NC(=O)[C@H](C)NC(=O)[C@H](CCCNC(=N)N)NC(=O)[C@H](CCC(N)=O)NC(=O)[C@H](CO)NC(=O)[C@H](CCCCN)NC(=O)[C@H](CC(N)=O)NC(=O)[C@@H](N)CCCNC(=N)N)[C@@H](C)O)C(=O)N[C@@H](CO)C(=O)N[C@@H](Cc1c[nH]cn1)C(=O)N[C@@H](CCSC)C(=O)N1CCC[C@H]1C(=O)N[C@@H](CO)C(=O)N[C@@H](CCCNC(=N)N)C(=O)N1CCC[C@H]1C(=O)N[C@@H](CCC(=O)O)C(=O)N[C@@H](CC(C)C)C(=O)N[C@@H](CO)C(=O)N[C@@H](C)C(=O)N[C@H](C(=O)N[C@@H](C)C(=O)N[C@H](C(=O)N[C@@H](CC(=O)O)C(=O)N[C@@H](CC(C)C)C(=O)N[C@@H](CCCNC(=N)N)C(=O)N[C@@H](CCCCN)C(=O)N[C@@H](CC(=O)O)C(=O)N[C@@H](CCCCN)C(=O)N[C@@H](C)C(=O)N[C@@H](CCCCN)C(=O)N[C@@H](COP(=O)(O)O)C(=O)N[C@@H](CSC/C=C(\C)CC/C=C(\C)CCC=C(C)C)C(=O)OC)[C@@H](C)O)C(C)C,"YWHAZ (Homo sapiens, UniProt P63104)","binding, stopped-flow fluorescence polarization",,,kon,3.92e+07 M⁻¹ s⁻¹
Nc1nc2c(ncn2[C@@H]2O[C@@H]3COP(=O)(O)O[C@H]4[C@@H](O)[C@H](n5cnc6c(N)ncnc65)O[C@@H]4COP(=O)(O)O[C@H]3[C@H]2O)c(=O)[nH]1,"SLC19A1 (Homo sapiens, UniProt P41440)",inhibitor,THP-1,"100 µM, 1 h",2'3'-cGAMP uptake,inhibited
Cc1ccc2c(c1)/C(=N/N=C/c1ccc(OCc3ccccc3)cc1)C(=O)N2,"MAOA (Homo sapiens, UniProt P21397)","enzyme activity, inhibitor",,10 µM,remaining activity,89.8%
CC[C@H](C)[C@H](NC(C)=O)C(=O)N[C@H]1CSSC[C@@H](C(=O)N[C@H](C(N)=O)[C@@H](C)O)NC(=O)[C@H](CCCNC(=N)N)NC(=O)[C@H](Cc2c[nH]cn2)NC(=O)[C@H](C)NC(=O)CNC(=O)[C@H](Cc2c[nH]c3ccccc23)NC(=O)[C@H](CC(=O)O)NC(=O)[C@H](CCC(N)=O)NC(=O)[C@H](Cc2ccc(OC)cc2)NC(=O)[C@H](C(C)C)NC1=O,Complement C3 C3b fragment,SPR,,"pH 7.4, 25 °C",koff,0.082 ± 0.008 s⁻¹
CNc1ccccc1C(=O)O[C@H]1C[C@H](n2cnc3c(N)ncnc32)O[C@@H]1COP(=O)(O)OP(=O)(O)O,"Unconventional myosin-Va (Gallus gallus, UniProt Q02440, D297C/G292C/I296C/S293C/V295G)",stopped-flow FRET,,"10 °C, added: EDTA 4 mM",dissociation rate constant,25.3 ± 0.2 s⁻¹
Cc1ccc(-c2c(/C=C(\C#N)C(=O)NC(C)C)n(CCCO)c3ncnc(N)c23)cc1,"Ribosomal protein S6 kinase alpha-3, C-terminal kinase domain (Rps6ka3, Mus musculus, UniProt P18654, C436V)","covalent bond formation, UV-visible spectroscopy",,25 or 300 µM,absorption peak change,no effect
N#C/C(=C\c1ccc(O)c(O)c1)C(=O)c1ccc(O)c(O)c1,"RYR1 (Sus scrofa, UniProt P16960)",inhibitor,skeletal SR vesicles,"concentration not given, added: Ca2+ 30 µM",[3H]ryanodine binding,inhibited
CC1=C(O)C(=O)C=C2C1=CC=C1[C@@]2(C)CC[C@@]2(C)[C@@H]3C[C@](C)(C(=O)NCCOCCOCCOCCOCC(=O)N[C@H](C(=O)N4C[C@H](O)C[C@H]4C(=O)N[C@@H](C)c4ccc(-c5scnc5C)cc4)C(C)(C)C)CC[C@]3(C)CC[C@]12C,"Nuclear receptor subfamily 4 group A member 1 (NR4A1, Homo sapiens, UniProt P22736)","protein degradation, degrader, immunoblotting",WM164 melanoma cells,"concentration not given, 16 h",protein level,decreased
CC[C@H](C)[C@H](NC(C)=O)C(=O)N[C@H]1CSSC[C@@H](C(=O)N[C@H](C(N)=O)[C@@H](C)O)NC(=O)[C@H](CCCNC(=N)N)NC(=O)[C@H](Cc2c[nH]cn2)NC(=O)[C@@H]2CCCN2C(=O)CNC(=O)[C@H](Cc2c[nH]c3ccccc23)NC(=O)[C@H](CC(=O)O)NC(=O)[C@H](CCC(N)=O)NC(=O)[C@H](Cc2cn(C)c3ccccc23)NC(=O)[C@H](C(C)C)NC1=O,Complement C3 C3b fragment,SPR,,"pH 7.4, 25 °C",koff,0.03 ± 0.01 s⁻¹
CC[C@H](C)[C@H](NC(=O)[C@H](CCCNC(=N)N)NC(=O)[C@H](CCCNC(=N)N)NC(=O)[C@H](C)NC(=O)[C@H](CC(C)C)NC(=O)[C@H](CCCNC(=N)N)NC(=O)[C@H](C)NC(=O)[C@H](Cc1c[nH]c2ccccc12)NC(=O)[C@H](CCCCN)NC(=O)[C@H](CCC(=O)O)NC(C)=O)C(=O)N[C@@H](C)C(=O)NCC(N)=O,"Histone chaperone ASF1A (Homo sapiens, UniProt Q9Y294)",isothermal titration calorimetry,,"pH 7.5, 20 °C",-TΔS,2.2 ± 0.6 kcal/mol

# Some of these lines once more:
SMILES,target,test,system,conditions,quantity,value
Cc1ccc(-c2c(/C=C(\C#N)C(=O)NC(C)C)n(CCCO)c3ncnc(N)c23)cc1,"Ribosomal protein S6 kinase alpha-3, C-terminal kinase domain (Rps6ka3, Mus musculus, UniProt P18654, C436V)","covalent bond formation, UV-visible spectroscopy",,25 or 300 µM,absorption peak change,no effect
N#C/C(=C\c1ccc(O)c(O)c1)C(=O)c1ccc(O)c(O)c1,"RYR1 (Sus scrofa, UniProt P16960)",inhibitor,skeletal SR vesicles,"concentration not given, added: Ca2+ 30 µM",[3H]ryanodine binding,inhibited
